Assay results pooled from the literature.
Each line is one published result; not all experiments were run side by side.

CCCC[C@H]1C(=O)N(C)[C@@H](CCCC)C(=O)N[C@@H](CCCNC(=O)CN2CCN(CC(=O)O)CCN(CC(=O)O)CCN(CC(=O)O)CC2)C(=O)N[C@H](C(=O)NCC(N)=O)CSCC(=O)N[C@@H](Cc2ccc(O)cc2)C(=O)N(C)[C@@H](C)C(=O)N[C@@H](CC(N)=O)C(=O)N2CCC[C@H]2C(=O)N[C@@H](Cc2c[nH]cn2)C(=O)N[C@@H](CC(C)C)C(=O)N(C)CC(=O)N[C@@H](Cc2c[nH]c3ccccc23)C(=O)N[C@@H](CO)C(=O)N[C@@H](Cc2c[nH]c3ccccc23)C(=O)N1C [gallium-68 labelled]
maximum tumour uptake (dynamic PET; NOD/SCID mice, CHO-hPD-L1 xenograft, CHO-hPD-L1 tumour; intravenous, 120 min scan): 6.29 %ID/g

N=C(N)NCCC[C@@H](NC(=O)[C@@H](CCCNC(=N)N)NC(=O)[C@@H](CCCNC(=N)N)NC(=O)[C@@H](CCCNC(=N)N)NC(=O)[C@@H](CCCNC(=N)N)NC(=O)[C@@H](CCCNC(=N)N)NC(=O)[C@@H](CCCNC(=N)N)NC(=O)[C@@H](CCCNC(=N)N)NC(=O)[C@@H](CCCNC(=N)N)NC(=O)CCC(=O)NCCOCCOCCNC(=O)CCC(=O)NCCOCCOCCNC(=O)[C@@H](CCC(=O)O)NC(=O)[C@@H](CCC(=O)O)NC(=O)[C@@H](CCC(=O)O)NC(=O)[C@@H](CCC(=O)O)NC(=O)[C@@H](CCC(=O)O)NC(=O)[C@@H](CCC(=O)O)NC(=O)[C@@H](CCC(=O)O)NC(=O)[C@@H](CCC(=O)O)NC(=O)CCC(=O)O)C(N)=O
maximum tolerated dose ratio (athymic nude mice; intravenous, dose not given; reference: cell-penetrating peptide): ≥ 20 fold

Cc1c(CN(C)C(=O)/C=C/c2cnc3c(c2)CC(N)C(=O)N3)oc2ccccc12 (centres unmarked)
maximum tolerated dose (C57BL/6 mice female; intraperitoneal, 2 weeks, single dose): 50 mg/kg

CC(C)C[C@H](NC(=O)[C@H](CCCNC(=N)N)NC(=O)CNC(=O)CNC(=O)[C@@H](N)CCCNC(=N)N)C(=O)N[C@H]1CSSC[C@@H](C(=O)N[C@H](C(=O)NCC(=O)N[C@@H](CCCNC(=N)N)C(N)=O)C(C)C)NC(=O)[C@H](C(C)C)NC(=O)[C@@H]2CSSC[C@H](NC(=O)[C@H](Cc3ccc(O)cc3)NC1=O)C(=O)N[C@@H](CCCNC(=N)N)C(=O)N[C@@H](CCCNC(=N)N)C(=O)N[C@@H](CCCNC(=N)N)C(=O)N[C@@H](Cc1ccccc1)C(=O)N2
maximum tolerated dose (BALB/c mice; intraperitoneal, mild toxicity resolved by 24 h): 5 mg/kg

CC(C)(C)C(=O)OCOP(=O)(OCOC(=O)C(C)(C)C)C1CCCN(O)C1=O (centres unmarked)
maximum tolerated single dose (nude mice; intravenous): 30 mg/kg

C[C@H](Nc1c(-c2c(F)cc(OCCCN(C)C)cc2F)c(Cl)nc2ncnn12)C(F)(F)F
maximum tolerated dose (BALB/c mice; intraperitoneal, up to 48 h, single increasing doses): 10 to 15 mg/kg

CC[C@H](C)[C@@H]1NC(=O)[C@@H]2CSSC[C@@H]3NC(=O)[C@H](C(C)C)NC(=O)CNC(=O)CNC(=O)[C@H](CCCNC(=N)N)NC(=O)[C@H](CCCNC(=N)N)NC(=O)CNC(=O)[C@H](C(C)C)NC(=O)[C@@H]4CSSC[C@H](NC(=O)[C@H](CC(C)C)NC(=O)[C@H](CCCNC(=N)N)NC(=O)CNC(=O)CNC(=O)[C@H](CO)NC(=O)CNC(=O)[C@H](CO)NC(=O)CNC(=O)[C@@H]5CSSC[C@H](NC(=O)[C@H](CC(=O)O)NC(=O)[C@H](CO)NC(=O)[C@H](CC(=O)O)NC(=O)[C@H](CCCNC(=N)N)NC(=O)[C@H](CCCNC(=N)N)NC(=O)[C@H](CSSC[C@H](NC1=O)C(=O)N[C@@H](CCCNC(=N)N)C(=O)NCC(=O)N[C@@H](CC(N)=O)C(=O)NCC(=O)N[C@@H](Cc1ccc(O)cc1)C(=O)N5)NC(=O)[C@H](CCCNC(=N)N)NC(=O)[C@H](CCC(N)=O)NC(=O)[C@H](CC(C)C)NC(=O)[C@H]([C@@H](C)CC)NC(=O)[C@H](CCCCN)NC(=O)[C@@H]1CCCN1C3=O)C(=O)N1CCC[C@H]1C(=O)NCC(=O)N[C@@H](C)C(=O)N2)C(=O)N[C@@H](Cc1ccc(O)cc1)C(=O)N[C@H]1CSSC[C@H](NC(=O)[C@H](Cc2ccccc2)NC(=O)[C@H](CCCNC(=N)N)NC(=O)[C@H](CCCNC(=N)N)NC(=O)[C@H](CCCNC(=N)N)NC1=O)C(=O)N[C@@H](C(C)C)C(=O)N4
maximum tolerated dose (BALB/c mice; intraperitoneal, mild toxicity resolved by 24 h): 25 mg/kg

CN[C@@H]1[C@H](O)[C@H](NC)[C@H]2O[C@]3(O)[C@H](O[C@@H]2[C@H]1O)O[C@H](C)C[C@@]3(O)CNCCC1CCOCC1
maximum tolerated dose (female BALB/c mice; subcutaneous, 3 days, twice daily): 100 mg/kg

Some of these lines once more:
CCCC[C@H]1C(=O)N(C)[C@@H](CCCC)C(=O)N[C@@H](CCCNC(=O)CN2CCN(CC(=O)O)CCN(CC(=O)O)CCN(CC(=O)O)CC2)C(=O)N[C@H](C(=O)NCC(N)=O)CSCC(=O)N[C@@H](Cc2ccc(O)cc2)C(=O)N(C)[C@@H](C)C(=O)N[C@@H](CC(N)=O)C(=O)N2CCC[C@H]2C(=O)N[C@@H](Cc2c[nH]cn2)C(=O)N[C@@H](CC(C)C)C(=O)N(C)CC(=O)N[C@@H](Cc2c[nH]c3ccccc23)C(=O)N[C@@H](CO)C(=O)N[C@@H](Cc2c[nH]c3ccccc23)C(=O)N1C [gallium-68 labelled]
maximum tumour uptake (dynamic PET; NOD/SCID mice, CHO-hPD-L1 xenograft, CHO-hPD-L1 tumour; intravenous, 120 min scan): 6.29 %ID/g
